Assay results from different studies.
Each numbered part is a random draw from the data of one study; scales do not carry over between parts. Values joined by “and” are separate records of one study, mostly repeats; a detail may differ.
Chain of UniProt P49759 (whole entry, looked up): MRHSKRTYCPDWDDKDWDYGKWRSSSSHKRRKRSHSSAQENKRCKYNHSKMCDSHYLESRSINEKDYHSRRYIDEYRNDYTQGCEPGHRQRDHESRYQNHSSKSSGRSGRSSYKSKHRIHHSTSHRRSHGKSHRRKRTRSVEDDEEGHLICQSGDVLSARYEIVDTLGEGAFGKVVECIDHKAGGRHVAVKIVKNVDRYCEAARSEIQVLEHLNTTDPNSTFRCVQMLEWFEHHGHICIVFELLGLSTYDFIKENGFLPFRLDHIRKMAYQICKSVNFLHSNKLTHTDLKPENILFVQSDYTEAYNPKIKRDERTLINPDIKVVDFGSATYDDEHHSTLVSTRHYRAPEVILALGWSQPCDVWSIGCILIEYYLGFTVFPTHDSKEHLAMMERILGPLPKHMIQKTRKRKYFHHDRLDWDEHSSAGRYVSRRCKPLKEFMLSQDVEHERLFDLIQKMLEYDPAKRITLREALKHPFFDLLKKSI
Chain of UniProt Q8N568 (whole entry, looked up): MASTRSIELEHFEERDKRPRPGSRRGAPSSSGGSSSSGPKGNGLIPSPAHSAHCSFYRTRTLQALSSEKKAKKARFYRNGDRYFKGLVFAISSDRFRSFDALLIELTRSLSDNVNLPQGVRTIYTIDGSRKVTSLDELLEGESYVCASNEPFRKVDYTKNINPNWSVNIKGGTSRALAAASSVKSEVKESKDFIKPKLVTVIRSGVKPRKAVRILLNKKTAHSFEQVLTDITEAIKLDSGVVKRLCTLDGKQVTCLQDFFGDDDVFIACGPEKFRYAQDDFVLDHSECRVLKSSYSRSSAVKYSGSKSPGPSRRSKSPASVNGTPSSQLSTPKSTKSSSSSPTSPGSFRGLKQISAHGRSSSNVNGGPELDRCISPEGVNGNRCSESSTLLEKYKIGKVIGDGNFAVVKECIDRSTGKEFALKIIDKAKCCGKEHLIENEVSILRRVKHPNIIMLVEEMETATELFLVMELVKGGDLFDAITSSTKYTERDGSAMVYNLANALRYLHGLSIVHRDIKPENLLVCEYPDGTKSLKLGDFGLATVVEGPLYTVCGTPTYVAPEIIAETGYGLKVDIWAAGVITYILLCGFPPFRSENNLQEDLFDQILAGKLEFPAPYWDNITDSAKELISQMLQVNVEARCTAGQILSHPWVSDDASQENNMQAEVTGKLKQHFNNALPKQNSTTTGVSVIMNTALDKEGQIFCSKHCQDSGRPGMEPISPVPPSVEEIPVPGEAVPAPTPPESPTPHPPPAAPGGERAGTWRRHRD
Chain of UniProt Q13705 (whole entry, looked up): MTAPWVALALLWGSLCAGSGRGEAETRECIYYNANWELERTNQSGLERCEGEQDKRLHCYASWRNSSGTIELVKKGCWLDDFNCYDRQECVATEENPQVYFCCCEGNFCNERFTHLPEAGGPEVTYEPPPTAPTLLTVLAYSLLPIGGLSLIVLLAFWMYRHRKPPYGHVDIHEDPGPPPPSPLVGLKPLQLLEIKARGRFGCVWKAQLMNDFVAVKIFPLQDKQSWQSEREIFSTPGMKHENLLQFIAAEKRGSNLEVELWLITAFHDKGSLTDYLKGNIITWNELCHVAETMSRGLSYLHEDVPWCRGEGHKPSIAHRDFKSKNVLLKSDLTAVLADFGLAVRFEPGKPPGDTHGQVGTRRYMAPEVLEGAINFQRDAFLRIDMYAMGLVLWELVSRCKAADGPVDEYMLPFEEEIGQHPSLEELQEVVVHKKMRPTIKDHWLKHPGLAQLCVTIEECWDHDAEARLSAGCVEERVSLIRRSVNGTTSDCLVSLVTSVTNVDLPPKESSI
Chain of UniProt P49761 (whole entry, looked up): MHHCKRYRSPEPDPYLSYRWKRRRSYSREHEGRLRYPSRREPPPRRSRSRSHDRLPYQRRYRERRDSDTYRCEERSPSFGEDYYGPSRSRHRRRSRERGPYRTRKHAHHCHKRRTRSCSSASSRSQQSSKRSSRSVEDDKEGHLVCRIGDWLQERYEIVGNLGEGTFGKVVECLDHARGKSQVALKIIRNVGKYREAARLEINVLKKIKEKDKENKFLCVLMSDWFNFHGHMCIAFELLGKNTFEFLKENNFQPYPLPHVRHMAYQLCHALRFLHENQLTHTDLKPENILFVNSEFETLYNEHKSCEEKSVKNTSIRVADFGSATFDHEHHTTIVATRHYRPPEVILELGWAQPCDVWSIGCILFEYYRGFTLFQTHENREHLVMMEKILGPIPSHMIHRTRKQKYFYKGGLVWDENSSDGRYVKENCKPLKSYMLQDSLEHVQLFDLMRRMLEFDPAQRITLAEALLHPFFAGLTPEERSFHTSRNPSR
Chain of UniProt Q9H4B4 (whole entry, looked up): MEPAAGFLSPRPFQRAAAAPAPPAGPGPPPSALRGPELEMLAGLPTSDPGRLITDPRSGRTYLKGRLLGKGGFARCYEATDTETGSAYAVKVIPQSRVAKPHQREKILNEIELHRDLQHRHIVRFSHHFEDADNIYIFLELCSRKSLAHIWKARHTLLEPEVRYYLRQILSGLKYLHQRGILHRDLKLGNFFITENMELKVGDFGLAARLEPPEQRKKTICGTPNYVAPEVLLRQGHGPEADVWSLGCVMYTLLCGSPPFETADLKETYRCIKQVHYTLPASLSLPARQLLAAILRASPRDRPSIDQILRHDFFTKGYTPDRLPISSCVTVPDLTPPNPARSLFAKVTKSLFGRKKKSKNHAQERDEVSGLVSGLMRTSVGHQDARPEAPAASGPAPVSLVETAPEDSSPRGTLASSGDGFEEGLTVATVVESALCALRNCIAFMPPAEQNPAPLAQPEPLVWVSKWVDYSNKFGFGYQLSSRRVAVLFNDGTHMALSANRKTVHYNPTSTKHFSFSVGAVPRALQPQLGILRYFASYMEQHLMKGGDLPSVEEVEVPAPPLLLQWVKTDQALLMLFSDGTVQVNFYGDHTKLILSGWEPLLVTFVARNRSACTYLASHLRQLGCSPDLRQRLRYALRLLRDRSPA
Chain of UniProt P35968 (whole entry, looked up): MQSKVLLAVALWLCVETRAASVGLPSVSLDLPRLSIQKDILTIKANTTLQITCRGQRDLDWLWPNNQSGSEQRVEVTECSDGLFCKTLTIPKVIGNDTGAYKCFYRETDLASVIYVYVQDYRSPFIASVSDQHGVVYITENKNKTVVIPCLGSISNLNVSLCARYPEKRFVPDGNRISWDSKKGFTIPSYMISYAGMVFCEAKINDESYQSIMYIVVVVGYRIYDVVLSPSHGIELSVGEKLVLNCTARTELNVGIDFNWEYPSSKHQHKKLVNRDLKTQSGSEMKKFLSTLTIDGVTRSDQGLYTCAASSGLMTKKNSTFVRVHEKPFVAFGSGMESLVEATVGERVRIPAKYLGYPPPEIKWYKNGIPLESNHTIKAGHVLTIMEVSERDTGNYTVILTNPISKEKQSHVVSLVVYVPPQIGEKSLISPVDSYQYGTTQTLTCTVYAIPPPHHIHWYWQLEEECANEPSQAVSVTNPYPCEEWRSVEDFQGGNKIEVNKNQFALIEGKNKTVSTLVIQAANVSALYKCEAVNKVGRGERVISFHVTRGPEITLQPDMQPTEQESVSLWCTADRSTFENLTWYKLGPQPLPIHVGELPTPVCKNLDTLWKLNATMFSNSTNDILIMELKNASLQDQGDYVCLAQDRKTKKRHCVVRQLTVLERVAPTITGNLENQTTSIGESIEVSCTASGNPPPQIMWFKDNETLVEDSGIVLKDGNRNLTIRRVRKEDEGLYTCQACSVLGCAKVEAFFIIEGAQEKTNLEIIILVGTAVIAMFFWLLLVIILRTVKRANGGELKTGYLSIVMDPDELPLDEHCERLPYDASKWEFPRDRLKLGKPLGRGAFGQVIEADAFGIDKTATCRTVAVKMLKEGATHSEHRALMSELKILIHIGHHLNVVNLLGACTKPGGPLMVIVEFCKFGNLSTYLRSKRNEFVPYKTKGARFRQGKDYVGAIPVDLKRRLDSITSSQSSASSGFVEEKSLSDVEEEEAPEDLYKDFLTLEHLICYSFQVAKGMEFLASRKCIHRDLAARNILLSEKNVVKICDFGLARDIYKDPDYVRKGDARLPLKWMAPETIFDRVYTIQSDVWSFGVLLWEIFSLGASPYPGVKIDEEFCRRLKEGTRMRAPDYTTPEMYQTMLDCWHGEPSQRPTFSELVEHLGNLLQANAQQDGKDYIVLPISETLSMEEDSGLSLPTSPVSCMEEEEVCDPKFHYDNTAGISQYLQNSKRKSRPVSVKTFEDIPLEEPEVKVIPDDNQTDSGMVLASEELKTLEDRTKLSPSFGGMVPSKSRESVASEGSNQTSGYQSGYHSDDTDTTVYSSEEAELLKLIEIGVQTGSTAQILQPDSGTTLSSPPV
Chain of UniProt P31751 (whole entry, looked up): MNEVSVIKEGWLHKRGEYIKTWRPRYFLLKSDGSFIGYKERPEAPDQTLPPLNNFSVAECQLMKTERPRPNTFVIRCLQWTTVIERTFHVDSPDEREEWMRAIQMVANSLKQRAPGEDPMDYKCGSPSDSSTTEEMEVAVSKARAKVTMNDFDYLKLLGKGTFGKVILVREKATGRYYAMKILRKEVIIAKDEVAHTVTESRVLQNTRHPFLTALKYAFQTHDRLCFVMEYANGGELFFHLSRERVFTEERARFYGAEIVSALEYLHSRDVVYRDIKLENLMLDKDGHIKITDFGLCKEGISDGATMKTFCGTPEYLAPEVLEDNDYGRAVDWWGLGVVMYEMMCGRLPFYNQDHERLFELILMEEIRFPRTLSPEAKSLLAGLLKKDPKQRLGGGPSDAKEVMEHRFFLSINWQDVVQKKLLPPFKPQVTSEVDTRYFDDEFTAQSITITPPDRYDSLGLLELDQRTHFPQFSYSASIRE

Study 1 — effect on: cell-free assay; method: competition with immobilised ligand; tested at: 0.1 µM; quantity: remaining binding
Compound: Nc1c(C(=O)NCc2ccc(C(=O)NCCCC3CCCCC3)cc2)cnn1-c1ccccc1
MAPK10 (Homo sapiens, UniProt P53779): 100%
ALK (Homo sapiens, UniProt Q9UM73, C1156Y): 100%
Tyrosine-protein kinase ABL1, non-phosphorylated (ABL1, Homo sapiens, UniProt P00519, H396P): 80%
CLK1 (Homo sapiens, UniProt P49759): 100%
ACVR2B (Homo sapiens, UniProt Q13705): 100%

Study 2 — Structure (SMILES): CCC(=O)Nc1ccc2ncnc(Nc3cccc(Br)c3)c2c1; effect on: enzyme activity; action: inhibitor; tested at: 0.5 µM; reference: control; quantity: remaining activity
CDC42BPB (Homo sapiens, UniProt Q9Y5S2): 114%
PRKG2 (Homo sapiens, UniProt Q13237): 110%
KDR (Homo sapiens, UniProt P35968): 96.5%
CLK4 (Homo sapiens, UniProt Q9HAZ1): 99.4%
DCLK2 (Homo sapiens, UniProt Q8N568): 89%
AKT2 (Homo sapiens, UniProt P31751): 102%
PLK3 (Homo sapiens, UniProt Q9H4B4): 93.2%
MET (Homo sapiens, UniProt P08581): 103%
TLK2 (Homo sapiens, UniProt Q86UE8): 104%
DDR2 (Homo sapiens, UniProt Q16832): 109%
CLK3 (Homo sapiens, UniProt P49761): 99.3%
MAPK14 (Homo sapiens, UniProt Q16539): 82.8%
TXK (Homo sapiens, UniProt P42681): 90.5%
Myosin-IIIb (MYO3B, Homo sapiens, UniProt Q8WXR4): 135%

Study 3 — cell line: mouse MPNST tumor cells; method: high-content nuclear imaging; refers to: cell number; tested at: 10 µM; time: 12 h; setting: mean of 2 replicates; reference: plate mean; direction: higher = more cells; quantity: nuclei count
O=C1CCc2ccc(OCCCCN3CCN(c4cccc(Cl)c4Cl)CC3)cc2N1: -0.258 z-score and -0.439 z-score and 2.02 z-score
CCc1cc(C(N)=S)ccn1: -0.632 z-score
C#C[C@]1(OC(C)=O)CC[C@H]2[C@@H]3CCC4=CC(=NO)CC[C@@H]4[C@H]3CC[C@@]21CC (mixture of isomers): 0.234 z-score
CCCCN(CCCC)CCCOC(=O)c1ccc(N)cc1: 0.584 z-score

Study 4 — cell line: HaCaT; tested at: 100 µM; time: 18 h; quantity: viability
CC1=C(/C=C/C(C)=C/C=C/C(C)=C/C=C/C=C(C)/C=C/C=C(C)/C=C/C2=C(C)C(=O)[C@@H](O)CC2(C)C)C(C)(C)C[C@H](O)C1=O: 97.1%
NC(=O)N1c2ccccc2CC(=O)c2ccccc21: 63.9%
COc1cccc2c1C(=O)c1c(O)c3c(c(O)c1C2=O)C[C@@](O)(C(=O)CO)C[C@@H]3O[C@H]1C[C@H](N)[C@H](O)[C@H](C)O1: 55.9%
c1ccc(-c2ccc(C(c3ccccc3)n3ccnc3)cc2)cc1 (stereo not shown): 26.1%
O=C(Nc1ncc([N+](=O)[O-])s1)c1ccccc1O: 35.1%

Repeated from above (study 2):
MAPK14 (Homo sapiens, UniProt Q16539): 82.8%
TXK (Homo sapiens, UniProt P42681): 90.5%
Myosin-IIIb (MYO3B, Homo sapiens, UniProt Q8WXR4): 135%
